# Published values pooled from the literature.
# Each numbered part is a random draw from the data of one study; scales do not carry over between parts. Substitutions count along the parent as printed.

# Study 1
# Target: Sal-like protein 4, full length isoform B (SALL4, Homo sapiens, UniProt Q9UJQ4-2, residues 1-616)
# Technique: universal PBM
# Form: double-stranded DNA, one strand shown
# Matrix: in vitro
# Tested at: not given
# Notes: 8-mer, flanks averaged, mean of replicates
# Reading: higher = stronger binding
Oligonucleotide,E-score
GCCGACCA,-0.248
ATGGATAG,0.04
CCGTCGGA,-0.222
AAGAGAAG,0.0539
ATCAATAG,0.309
GCGGCTCA,-0.281
CTTCACGA,-0.19
ATAGTCGG,-0.168
CCTTTGGA,-0.217
ACTGATAG,0.0968
AACTTGGT,0.189
CTGCGAAG,-0.188
CAACTAGG,-0.0374
AGGATAGG,0.00136
CGGCCCAA,-0.309
GACGCCCA,-0.164
CGGCACCC,-0.209
TATTGCAA,0.214
ATGGATCA,0.07
CCGGGGAA,-0.279
GACGAACC,-0.0143
AGCAAAAC,0.0842
CGTGAACA,-0.0779
AGGTTTAT,0.264
TAGGTTGA,-0.0443

# Study 2
# Target: Histone acetyltransferase KAT6A, winged helix 1, GST fusion (KAT6A, Homo sapiens, UniProt Q92794, residues 1-85)
# Technique: protein binding microarray
# Form: double-stranded DNA, one strand shown
# Matrix: in vitro
# Tested at: not given
# Notes: 8-mer, flanks averaged, mean of 2 arrays, mostly near background
# Relative to: not given
# Reading: higher = stronger binding
# Target sequence (chain): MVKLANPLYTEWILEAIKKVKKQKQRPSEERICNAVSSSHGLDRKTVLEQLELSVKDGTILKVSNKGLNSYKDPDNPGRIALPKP
Oligonucleotide,E-score
CTCCTACC,0.0641
AGGTTAAG,-0.168
CCAGGCCA,-0.107
ATACTTCA,-0.229
CGGGACTC,0.247
ATGAACAA,-0.169
AAACGGGC,0.222
CGGACTGA,0.0978
ACTTGCAG,-0.249
ATCTTAGC,-0.0621
AGACACTC,-0.215
CCACATTA,-0.212
AACGACCT,-0.0345
AAGCACCA,-0.202
CGTCCATA,-0.0574
AGGTTAGA,-0.0692
ATACCGAA,0.108
CCGGTTGC,0.257
CGACCAGC,0.119
AATTCTTC,-0.0554
ATCTAGAT,-0.262

# Study 3
# Target: Prothrombin, mature alpha-thrombin (F2, Homo sapiens, UniProt P00734)
# Technique: aptamer microarray, sandwich
# Form: DNA with 2'F-ANA
# Matrix: in vitro
# Tested at: 200 nM
# Notes: whole 15-mer aptamer, many near background
# Added: Cy3 exosite-II aptamer, 400 nM
# Reading: higher = stronger binding
# Oligonucleotide: GGTTGGTGTGGTTGG
Modification,mean fluorescence intensity
2'F-ANA at 2 7 8 9 10 12 14 15,97.7 a.u.
2'F-ANA at 1 8 13 14 15,74.3 a.u.
2'F-ANA at 1 6 7 10 11 12 13 14,44.4 a.u.
2'F-ANA at 5 9 11 12,137 a.u.
2'F-ANA at 5 6 9 10 11,47.1 a.u.
2'F-ANA at 1 6 8 12 13,317 a.u.
2'F-ANA at 2 3 4 8 9 10 14,191 a.u.
2'F-ANA at 1 2 3 4 5 8 11 12 13,83.4 a.u.
2'F-ANA at 1 2 6 7 9 11 14,52.7 a.u.
2'F-ANA at 1 3 7 9 10 14,60.4 a.u.
2'F-ANA at 2 4 8 10 11 13 15,67.5 a.u.
2'F-ANA at 1 3 4 6 7 8 10 11 14 15,54.9 a.u.
2'F-ANA at 1 2 3 9 11 12 15,362 a.u.
2'F-ANA at 2 3 4 9 12 13 14 15,479 a.u.
2'F-ANA at 3 4 6 8 9 10 11 12 15,222 a.u.
2'F-ANA at 2 6 7 8 10 11 14,128 a.u.
2'F-ANA at 1 3 5 6 7 10 11 13 14 15,55.1 a.u.
2'F-ANA at 2 4 6 8 9 11 12,378 a.u.
2'F-ANA at 1 2 4 6 7 8 13 15,94.6 a.u.
2'F-ANA at 3 6 7 8 9 10 12,529 a.u.
2'F-ANA at 1 3 4 6 12,414 a.u.
2'F-ANA at 1 2 3 4 8 9 10 11 14 15,60.2 a.u.
2'F-ANA at 4 7 9 13 14,179 a.u.
2'F-ANA at 4 6 10 12 14 15,54.8 a.u.
2'F-ANA at 1 3 4 6 7 9 10 11 13 14,72.2 a.u.

# Study 4
# Target: RNA binding protein fox-1 homolog 2, RRM domain, GST-SBP tag (RBFOX2, Homo sapiens, UniProt O43251-10, residues 100-194)
# Technique: RNA Bind-n-Seq
# Form: RNA
# Matrix: in vitro
# Tested at: 365 nM
# Notes: natural RNA segment, single round, ends assumed
# Relative to: no-protein control
# Reading: higher = stronger binding
# Constant ends, left off below: GGGAGUUCUACAGUCCGACGAUC … UGGAAUUCUCGGGUGCCAA
# Target sequence (chain): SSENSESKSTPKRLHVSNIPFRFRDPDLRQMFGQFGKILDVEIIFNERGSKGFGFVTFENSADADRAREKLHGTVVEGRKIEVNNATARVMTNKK
Oligonucleotide,RBNS enrichment (R)
CAGAGGAUCCGGAUCUCAGAGCCUGAGACCAGGUUUAUUGGGGCCUGGCCUGUCCUCUAAGUCAAGUUUAGGAAAACAAGGAUAAGAUUCUGUCAUAGGCAUAGAGAGUU,0.437
GCUCGGCUUCUGCCUCUGUUUCCAAGCCCACCCCUUCCCGGAGGGAUAGGGACGGGUGCUUUCCUCUCUAGUUGUAUCUGAGCGGAAGGAACAUCUUUCUGUAGCUAAUA,0.21
GCCUGUGGCCCCUCACAUUCUCCAGGACCUGCCCUGCUAUGGGCCACUAACUGCUUGCUGGGGACAGGCAAACCCGGACUGUGCAAAGUUACUAGCCCGUAGCUCUUGGG,0.298
GAAGAAAUGGUGGUAAACUUUCUCUACCUAGAAGUAGUGGAAAUUUCAAGGUCAUCUUAAAAAAGAUGUGCGUUGUAUAUUUUAACUACAUUCUCUACACUCUAACAUUA,0.265
CGCUAUCUAAAGGGAACCCCCAUUUCUGACCCAUUAGUAGUCUUGAAUGUGGGGCUCUGAGAUAAAGGCCCGCAGACAGGGACAAGGGAUGCCCUACCCUUAACCUAGGC,0.241
AAUCCGAUUUGGUUUGGUUUUUCCCUUUCCCUGGAUUCUUUCCUACCUUCUUCAGGCUGUCAAGCACGGGAGAGGAGACACAGUGGGAGGGAUUCAUAAGGAGAAAACAG,0.236
CAACAUAGAGUUUAAGUAUCCAGUAGUGAUUUGUAAACUUGUUUUUCAUUUGAAGCUGAAUAUAUACGUAGUCAUGUUUAUGUUGAGAACUAAGGAUAUUCUUUAGCAAG,0.602
UCCACAGCCCACACGUGAGCUCCCUCCUCACCCCCAGGCAGGGAAGCCCCUCCUGCCAGUCCCUGUCCCCUUUCAGCCCACCAGUCCCUCUCUGCUGCCGGUGAUGGGAG,0.793

# Study 5
# Target: CREB3L1, bZIP domain (human)
# Technique: DHFR protein complementation
# Matrix: yeast
# Notes: single substitutions, most at no-binding floor
# Relative to: wild-type JUN-FOS pair
# Reading: higher = stronger binding
# Starting sequence: JUN, bZIP domain (human); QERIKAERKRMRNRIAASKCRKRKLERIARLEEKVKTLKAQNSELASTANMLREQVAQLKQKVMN; partner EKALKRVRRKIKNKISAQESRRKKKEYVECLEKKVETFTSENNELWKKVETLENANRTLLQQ
Substitution,binding fitness
R30T,-1.31 natural log
S47E,-1.08 natural log
R53N,-1.49 natural log
E44H,-1.24 natural log
R53I,-1.46 natural log
A57T,-1.32 natural log
E32Y,-1.48 natural log
E32A,-1.38 natural log
E32T,-1.28 natural log
N42H,-1.51 natural log
E54K,-1.46 natural log
L52D,-1.39 natural log
L52P,-1.45 natural log
T48G,-1.5 natural log
L45I,-1.38 natural log
R30K,-1.41 natural log

# Study 6
# Target: Transcriptional repressor CTCF (CTCF, Homo sapiens, UniProt P49711, residues 1-727, full length assumed)
# Sequence of UniProt P49711 (whole entry, looked up): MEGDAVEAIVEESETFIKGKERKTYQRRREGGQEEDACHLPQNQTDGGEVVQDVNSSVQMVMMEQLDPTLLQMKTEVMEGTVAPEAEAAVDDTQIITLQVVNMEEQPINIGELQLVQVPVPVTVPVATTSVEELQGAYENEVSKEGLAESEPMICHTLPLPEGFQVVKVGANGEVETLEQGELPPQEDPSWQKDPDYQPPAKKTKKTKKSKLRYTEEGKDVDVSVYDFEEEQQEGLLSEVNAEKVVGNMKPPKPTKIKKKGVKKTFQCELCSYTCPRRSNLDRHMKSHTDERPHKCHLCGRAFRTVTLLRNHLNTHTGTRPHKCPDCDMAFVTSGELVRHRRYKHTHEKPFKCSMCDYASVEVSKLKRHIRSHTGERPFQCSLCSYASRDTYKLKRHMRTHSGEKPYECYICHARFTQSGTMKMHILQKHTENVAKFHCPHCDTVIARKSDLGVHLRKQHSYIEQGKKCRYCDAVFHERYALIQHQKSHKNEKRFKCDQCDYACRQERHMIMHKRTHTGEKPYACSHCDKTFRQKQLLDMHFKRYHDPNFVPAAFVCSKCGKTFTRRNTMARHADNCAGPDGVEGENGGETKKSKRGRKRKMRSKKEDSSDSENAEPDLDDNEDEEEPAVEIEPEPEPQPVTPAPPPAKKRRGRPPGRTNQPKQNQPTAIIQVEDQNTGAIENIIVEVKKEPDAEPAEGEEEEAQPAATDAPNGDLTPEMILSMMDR
# Technique: protein-binding microarray
# Form: double-stranded DNA, one strand shown
# Matrix: in vitro
# Tested at: not given
# Notes: k-mer, scored over probes, only values ≥0.25
# Reading: higher = stronger binding
Oligonucleotide,E-score
CCTAGCGC,0.252
CGCGAAAA,0.281
ATACAACA,0.258
CGCGCGCG,0.32
ACTGCGCA,0.354
ATGTTATG,0.27
ATTATACG,0.307
AAACATCA,0.252
AATATTAG,0.259
ACAAAATA,0.314
GGGCGCCA,0.411
TAAATAAA,0.355
ACTGTATA,0.302
ACAATGCG,0.264
ATGCGCCA,0.468
ATAATTGA,0.28
AATAGATA,0.261
ATAGTATC,0.291
AAATTTAT,0.288
CAGGGGGC,0.317

# For quick reference, copied from above (study 4):
Oligonucleotide,RBNS enrichment (R)
CAGAGGAUCCGGAUCUCAGAGCCUGAGACCAGGUUUAUUGGGGCCUGGCCUGUCCUCUAAGUCAAGUUUAGGAAAACAAGGAUAAGAUUCUGUCAUAGGCAUAGAGAGUU,0.437
GCUCGGCUUCUGCCUCUGUUUCCAAGCCCACCCCUUCCCGGAGGGAUAGGGACGGGUGCUUUCCUCUCUAGUUGUAUCUGAGCGGAAGGAACAUCUUUCUGUAGCUAAUA,0.21
GCCUGUGGCCCCUCACAUUCUCCAGGACCUGCCCUGCUAUGGGCCACUAACUGCUUGCUGGGGACAGGCAAACCCGGACUGUGCAAAGUUACUAGCCCGUAGCUCUUGGG,0.298
GAAGAAAUGGUGGUAAACUUUCUCUACCUAGAAGUAGUGGAAAUUUCAAGGUCAUCUUAAAAAAGAUGUGCGUUGUAUAUUUUAACUACAUUCUCUACACUCUAACAUUA,0.265
CGCUAUCUAAAGGGAACCCCCAUUUCUGACCCAUUAGUAGUCUUGAAUGUGGGGCUCUGAGAUAAAGGCCCGCAGACAGGGACAAGGGAUGCCCUACCCUUAACCUAGGC,0.241
AAUCCGAUUUGGUUUGGUUUUUCCCUUUCCCUGGAUUCUUUCCUACCUUCUUCAGGCUGUCAAGCACGGGAGAGGAGACACAGUGGGAGGGAUUCAUAAGGAGAAAACAG,0.236
CAACAUAGAGUUUAAGUAUCCAGUAGUGAUUUGUAAACUUGUUUUUCAUUUGAAGCUGAAUAUAUACGUAGUCAUGUUUAUGUUGAGAACUAAGGAUAUUCUUUAGCAAG,0.602
UCCACAGCCCACACGUGAGCUCCCUCCUCACCCCCAGGCAGGGAAGCCCCUCCUGCCAGUCCCUGUCCCCUUUCAGCCCACCAGUCCCUCUCUGCUGCCGGUGAUGGGAG,0.793
